Measurements gathered from unrelated publications.
Each line is one published result; not all experiments were run side by side. Values joined by “and” are separate records of one study, mostly repeats; a detail may differ.

SMILES	cell line	effect on	method	tested at	time	reference	viability
Cc1nn(-c2nc3ccc(Cl)c(Cl)c3[nH]2)c(O)c1C1OC(=O)c2ccccc21 (centres unmarked)	RAW-ISG	–	CCK-8	30 µM	–	–	97.8% and 88.5% and 102% and 96.2% and 95.5%
C/C=C1\CN(C)[C@H]2C[C@@]3(C(=O)N(OC)c4ccccc43)[C@H]3C[C@@H]1[C@@H]2CO3	HT-22	–	CCK-8	up to 100 µM	24 h	–	no effect
CC(C)[C@H](N)C(=O)N1CCC[C@H]1B(O)O	Ker-CT wild type	cell death	CellTiter-Glo	2 µM	–	–	84.6% and 81.9% and 85.1%
CCC(=O)CCCCC[C@@H]1NC(=O)[C@H]2CCCCN2C(=O)[C@H]([C@@H](C)CC)NC(=O)[C@H](Cc2cn(OC)c3ccccc23)NC1=O	OCI-Ly1	–	–	0.5 µM	120 h	–	8.08%
CC(CCc1ccccc1)NC(C)C(O)c1ccc(O)cc1 (centres unmarked)	MCF-10A	–	CellTiter-Glo	concentration not given	–	normalised, mean of replicates	96.8%
C=C[C@]12CN(C)[C@@H]3[C@H]4CO[C@H](C[C@H]41)[C@]1(C(=O)Nc4ccccc41)[C@@H]32	HT-22	–	CCK-8	up to 100 µM	24 h	–	no effect
c1ccc([C@@H]2C[C@H]2NC2CCNCC2)cc1	OCI-Ly1	–	–	0.1 µM	120 h	–	200%
COC[C@@H]([C@H](O)[C@H](O)C(=O)NCC[C@H](C)c1nc(/C=C/C[C@@H]2O[C@]3(C[C@@H](O)[C@@H]2C)O[C@H]([C@H](C[C@H](O)[C@H](C)[C@H](O)[C@H](C)/C=C(C)/C(C)=C/C=C/C(C)=C\C#N)OC)[C@H](OP(=O)(O)O)C3(C)C)co1)N(C)C	MCF-10A	–	CellTiter-Glo	concentration not given	–	normalised luminescence	120%

For quick reference, copied from above:
SMILES	cell line	effect on	method	tested at	time	reference	viability
CCC(=O)CCCCC[C@@H]1NC(=O)[C@H]2CCCCN2C(=O)[C@H]([C@@H](C)CC)NC(=O)[C@H](Cc2cn(OC)c3ccccc23)NC1=O	OCI-Ly1	–	–	0.5 µM	120 h	–	8.08%
